Experimental data collected from several papers.
Each line is one published result; not all experiments were run side by side. Numbers after ± are the reported error.

Substance = CNC(=O)c1ccccc1Sc1ccc2c(/C=C/c3ccccn3)n[nH]c2c1; system = New Zealand White rabbits, plasma; conditions = suprachoroidal, 1 mg/eye, 6 h; endpoint = plasma concentration; result = 0.288 ng/mL
Substance = NCCCC[C@@H]1NC(=O)[C@@H](Cc2c[nH]c3ccccc23)NC(=O)[C@H](c2ccccc2)NC(=O)[C@@H]2C[C@@H](OC(=O)NCCN)CN2C(=O)[C@H](Cc2ccccc2)NC(=O)[C@H](Cc2ccc(OCc3ccccc3)cc2)NC1=O; test = radioimmunoassay; system = healthy male volunteers, plasma; conditions = subcutaneous, 1 µg, below LLOQ; endpoint = plasma concentration; result = < 0.03 ng/mL
Substance = polysorbate 80; system = human, plasma; conditions = concentration not given, 1 h after loading dose, day 1; endpoint = plasma concentration; result = 5300 ng/mL
Substance = COc1cc2c(cc1OC)CN(CCc1ccc(NC(=O)c3cc(OC)c(OC)cc3NC(=O)c3cnc4ccccc4c3)cc1)CC2; system = patients, plasma; conditions = intravenous, 150 mg, 48 h post-dose, cycle 1, no vinorelbine; endpoint = plasma concentration; result = 66 ng/mL
Substance = liraglutide; test = equilibrium dialysis; system = human plasma 10% diluted; conditions = 10 nM, 4 to 5 h, pH 7.4, 37 °C, inner-outer ratio 100:1; endpoint = plasma protein binding; result = 99.2%
Substance = OC[C@H]1O[C@@H](c2ccc(Cl)c(Cc3ccc(O[C@H]4CCOC4)cc3)c2)[C@H](O)[C@@H](O)[C@@H]1O; test = HPLC-MS/MS; system = healthy Chinese volunteers, fasting; conditions = oral, 10 mg tablet, 2.75 h; endpoint = plasma concentration; result = 130 ± 18.5 ng/mL
Substance = CS(=O)(=O)n1cc2c(n1)CN([C@H]1CO[C@H](c3cc(F)ccc3F)[C@@H](N)C1)C2; system = healthy Japanese men, fasted, plasma; conditions = oral, 100 mg single dose, 168 h; endpoint = plasma concentration; result = 54.5 nM
Substance = Cc1cc(C)c2c(c1)[C@@H](N(Cc1cc(C(F)(F)F)cc(C(F)(F)F)c1)c1nnn(C)n1)CCCN2C[C@H]1CC[C@H](C(=O)O)CC1; system = human, plasma; conditions = oral, 100 mg daily, 4 to 6 weeks after last dose; endpoint = plasma concentration; result = 50.9 ng/mL

For quick reference, copied from above:
Substance = CS(=O)(=O)n1cc2c(n1)CN([C@H]1CO[C@H](c3cc(F)ccc3F)[C@@H](N)C1)C2; system = healthy Japanese men, fasted, plasma; conditions = oral, 100 mg single dose, 168 h; endpoint = plasma concentration; result = 54.5 nM
